# Experimental data of several laboratories.
# ± gives the spread as reported.
SMILES,target or system,test,test system,conditions,endpoint,result
COc1ncncc1-c1cn([C@@H]2O[C@](F)(CO[P@@](=O)(N[C@@H](C)C(=O)OC(C)C)Oc3ccccc3)[C@@H](O)[C@H]2O)cn1,Zaire ebolavirus,"viral replication, reporter virus",Huh-7,72 h,IC50,> 100 µM
O=c1ccn([C@@H]2O[C@](F)(CO)[C@@H](O)[C@H]2O)c(=O)[nH]1,Mammarenavirus lassaense,viral replication,"HeLa, clade II",,EC50,4.4 µM
CC[C@H](C)[C@H](NC(=O)[C@H](CCC(N)=O)NC(=O)[C@H](CC(=O)O)NC(=O)[C@@H](NC(=O)[C@H](C)NC(=O)[C@H](C)NC(=O)[C@H](CC(N)=O)NC(=O)[C@@H](NC(=O)[C@@H](NC(=O)[C@H](C)NC(=O)[C@H](CCC(=O)O)NC(=O)CNC(=O)[C@H](C)NC(=O)[C@H](C)NC(=O)[C@H](CCC(=O)O)NC(=O)[C@H](C)NC(=O)[C@H](C)NC(=O)CNC(=O)[C@H](CCCCN)NC(=O)CNC(=O)[C@H](Cc1ccccc1)NC(=O)[C@H](CO)NC(=O)[C@@H](NC(=O)[C@H](CC(C)C)NC(=O)[C@@H](NC(=O)[C@H](CC(N)=O)NC(=O)[C@H](CCCNC(=N)N)NC(=O)CNC(=O)[C@H](Cc1ccccc1)NC(=O)[C@H](CCCCN)NC(=O)[C@H](CO)NC(=O)CNC(=O)[C@H](CCCCN)NC(=O)[C@H](CCCNC(=N)N)NC(=O)[C@H](CCCCN)NC(=O)[C@H](CCCCN)NC(=O)[C@H](CCCNC(=N)N)NC(=O)[C@@H](N)CCCCN)[C@@H](C)CC)[C@@H](C)O)[C@@H](C)O)C(C)C)C(C)C)C(=O)N[C@@H](CC(C)C)C(=O)N[C@@H](CCC(=O)O)C(=O)N[C@@H](C)C(=O)N[C@@H](CCC(N)=O)C(=O)NCC(=O)N[C@@H](CCC(=O)O)C(=O)NCC(=O)N[C@@H](CCC(=O)O)C(=O)N[C@@H](Cc1ccc(O)cc1)C(=O)O,Drosophila melanogaster,"calcium response, calcium imaging","class IV da neurons, ppk1.9-Gal4 UAS-GCaMP6f",,EC50,2.45 µM
CCC(=O)[C@]12N[C@H]3C[C@@]4(C(=O)N(OC)c5ccccc54)[C@H](OC[C@H]31)[C@@H]2O,,,Kunming mice both sexes,"intraperitoneal, 7 days",LD50,> 30 mg/kg
COc1ccc2c(c1)[nH]c1c(C)nccc12,MERS-CoV spike VSV pseudovirus,pseudovirus entry,,10 µM,inhibition,43%
CC(C)C(=O)OC[C@@]1(F)O[C@@H](n2cnc(-c3c[nH]c(=O)[nH]c3=O)c2)[C@H](OC(=O)C(C)C)[C@@H]1OC(=O)C(C)C,Zaire ebolavirus,"viral replication, reporter virus",Huh-7,72 h,IC50,57.2 µM
CC[C@H](C)[C@H](NC(=O)CNC(=O)CNC(=O)[C@@H](NC(=O)[C@@H](N)CCCNC(=N)N)[C@@H](C)CC)C(=O)N[C@@H](CC(C)C)C(=O)N[C@@H](CCCCN)C(=O)N[C@H](C(=O)N[C@@H](CC(C)C)C(=O)N[C@@H](CCCCN)C(=O)N[C@@H](CCCCN)C(=O)N[C@H](C(=O)N[C@@H](CC(C)C)C(=O)N1CCC[C@H]1C(=O)N[C@@H](CCCCN)C(=O)N[C@@H](C)C(=O)N[C@H](C(=O)N[C@@H](CCCCN)C(=O)N[C@@H](C)C(=O)N[C@@H](C)C(=O)N[C@@H](C)C(=O)N[C@@H](CCC(=O)O)C(=O)N[C@@H](CCSC)C(=O)N[C@@H](C)C(=O)N1CCC[C@H]1C(=O)N1CCC[C@H]1C(=O)N[C@@H](CCC(N)=O)C(=O)N[C@@H](CC(N)=O)C(=O)N[C@@H](CCC(=O)O)C(=O)O)[C@@H](C)CC)C(C)C)[C@@H](C)CC,Drosophila melanogaster,"calcium response, calcium imaging","class IV da neurons, ppk1.9-Gal4 UAS-GCaMP6f",,EC50,48.7 µM
CC(C)C[C@@H]1NC(=O)[C@H](Cc2c[nH]cn2)NC(=O)[C@H](CCCCN)NC(=O)[C@@H]2CSSC[C@H](NC(=O)[C@@H](N)[C@@H](C)O)C(=O)N[C@@H](CCCNC(=N)N)C(=O)N[C@@H](Cc3ccc(O)cc3)C(=O)N[C@@H](CC(C)C)C(=O)N[C@@H](Cc3ccccc3)C(=O)NCC(=O)NCC(=O)N[C@H]3CSSC[C@H](NC(=O)[C@H](C)NC1=O)C(=O)N[C@@H](CCCNC(=N)N)C(=O)N[C@@H](CO)C(=O)N[C@@H](CC(=O)O)C(=O)NCC(=O)N[C@@H](CCCCN)C(=O)N[C@@H](Cc1ccc(O)cc1)C(=O)N[C@H](C(=O)N[C@@H](C)C(=O)N[C@@H](Cc1c[nH]c4ccccc14)C(=O)N[C@@H](CC(=O)O)C(=O)NCC(=O)N[C@H](C(=O)N[C@@H](Cc1ccccc1)C(=O)O)[C@@H](C)O)CSSC[C@H](NC(=O)[C@H](CC(=O)O)NC(=O)[C@H](C)NC(=O)[C@H]([C@@H](C)O)NC(=O)[C@H]([C@@H](C)O)NC(=O)[C@H](CCCCN)NC3=O)C(=O)N2,,Trp fluorescence titration,POPC:POPG LUVs,"pH 7, 2 µM toxin",mole fraction partition coefficient,3.4e+06 ± 600000
C=C[C@]12CN(C)[C@@H]3[C@H]4CO[C@H](C[C@H]41)[C@]1(C(=O)Nc4ccccc41)[C@@H]32,,,Kunming mice both sexes,"intraperitoneal, 7 days",LD50,> 30 mg/kg

# Some of these lines once more:
SMILES,target or system,test,test system,conditions,endpoint,result
C=C[C@]12CN(C)[C@@H]3[C@H]4CO[C@H](C[C@H]41)[C@]1(C(=O)Nc4ccccc41)[C@@H]32,,,Kunming mice both sexes,"intraperitoneal, 7 days",LD50,> 30 mg/kg
